Measurements collected from several papers.
Parts stem from different laboratories: compare values within a part only. Substitutions count along the parent as printed.
Sequence of UniProt Q9M1R4 (whole entry, looked up): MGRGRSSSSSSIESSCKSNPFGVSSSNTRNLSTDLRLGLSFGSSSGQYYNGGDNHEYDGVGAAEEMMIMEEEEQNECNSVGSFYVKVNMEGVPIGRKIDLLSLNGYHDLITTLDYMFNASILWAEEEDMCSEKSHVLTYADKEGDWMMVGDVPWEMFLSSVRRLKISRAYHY
Sequence of UniProt Q9FX25 (whole entry, looked up): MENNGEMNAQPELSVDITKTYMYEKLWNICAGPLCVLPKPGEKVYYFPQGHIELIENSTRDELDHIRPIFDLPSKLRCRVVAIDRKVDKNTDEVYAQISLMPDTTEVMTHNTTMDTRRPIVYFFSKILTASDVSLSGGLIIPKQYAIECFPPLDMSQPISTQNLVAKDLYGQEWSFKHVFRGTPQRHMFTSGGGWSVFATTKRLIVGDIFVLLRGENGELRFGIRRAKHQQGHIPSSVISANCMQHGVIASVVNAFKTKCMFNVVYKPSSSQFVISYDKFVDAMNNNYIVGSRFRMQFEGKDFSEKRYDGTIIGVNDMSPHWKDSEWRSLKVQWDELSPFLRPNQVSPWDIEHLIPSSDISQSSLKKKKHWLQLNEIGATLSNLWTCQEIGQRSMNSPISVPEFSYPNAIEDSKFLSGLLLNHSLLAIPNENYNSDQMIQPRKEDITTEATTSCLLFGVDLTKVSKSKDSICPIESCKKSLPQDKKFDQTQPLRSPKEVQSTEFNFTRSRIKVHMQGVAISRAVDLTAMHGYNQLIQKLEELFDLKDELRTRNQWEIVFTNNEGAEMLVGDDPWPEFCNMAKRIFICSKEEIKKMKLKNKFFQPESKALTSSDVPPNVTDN
Sequence of UniProt Q8RYC8 (whole entry, looked up): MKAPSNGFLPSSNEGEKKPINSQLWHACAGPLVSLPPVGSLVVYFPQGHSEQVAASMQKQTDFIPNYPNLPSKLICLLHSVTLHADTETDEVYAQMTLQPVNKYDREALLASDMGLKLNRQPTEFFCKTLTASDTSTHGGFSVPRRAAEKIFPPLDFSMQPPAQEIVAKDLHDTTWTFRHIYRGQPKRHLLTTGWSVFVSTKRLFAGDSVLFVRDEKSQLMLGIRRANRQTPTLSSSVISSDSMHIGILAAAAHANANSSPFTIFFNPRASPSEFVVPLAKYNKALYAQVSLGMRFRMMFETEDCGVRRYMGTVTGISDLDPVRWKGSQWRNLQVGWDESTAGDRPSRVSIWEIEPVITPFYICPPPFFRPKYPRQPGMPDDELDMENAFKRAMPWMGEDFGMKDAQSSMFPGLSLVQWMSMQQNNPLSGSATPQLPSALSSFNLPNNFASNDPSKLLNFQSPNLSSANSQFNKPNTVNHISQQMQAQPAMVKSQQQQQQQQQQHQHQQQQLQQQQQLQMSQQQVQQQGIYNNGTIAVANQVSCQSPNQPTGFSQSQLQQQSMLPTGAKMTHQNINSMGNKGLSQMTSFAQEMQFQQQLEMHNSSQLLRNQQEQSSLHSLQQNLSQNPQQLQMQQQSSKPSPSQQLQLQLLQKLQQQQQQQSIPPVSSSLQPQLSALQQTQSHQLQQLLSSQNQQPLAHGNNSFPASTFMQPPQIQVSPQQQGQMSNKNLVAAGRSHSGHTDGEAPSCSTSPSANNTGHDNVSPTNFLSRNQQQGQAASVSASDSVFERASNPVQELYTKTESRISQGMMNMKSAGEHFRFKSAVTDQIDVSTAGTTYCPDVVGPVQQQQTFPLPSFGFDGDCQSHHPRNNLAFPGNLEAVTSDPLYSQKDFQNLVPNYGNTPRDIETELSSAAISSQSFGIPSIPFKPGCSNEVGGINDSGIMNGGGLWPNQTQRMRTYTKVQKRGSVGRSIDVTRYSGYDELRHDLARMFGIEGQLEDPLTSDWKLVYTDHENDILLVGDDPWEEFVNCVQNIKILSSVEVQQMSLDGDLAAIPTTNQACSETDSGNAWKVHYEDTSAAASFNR
Sequence of UniProt Q8H174 (whole entry, looked up): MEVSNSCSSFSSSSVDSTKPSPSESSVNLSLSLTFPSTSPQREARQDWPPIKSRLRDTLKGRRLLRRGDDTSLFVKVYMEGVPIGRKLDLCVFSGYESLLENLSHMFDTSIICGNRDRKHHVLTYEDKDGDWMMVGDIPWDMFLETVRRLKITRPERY
Sequence of UniProt Q9XFM0 (whole entry, looked up): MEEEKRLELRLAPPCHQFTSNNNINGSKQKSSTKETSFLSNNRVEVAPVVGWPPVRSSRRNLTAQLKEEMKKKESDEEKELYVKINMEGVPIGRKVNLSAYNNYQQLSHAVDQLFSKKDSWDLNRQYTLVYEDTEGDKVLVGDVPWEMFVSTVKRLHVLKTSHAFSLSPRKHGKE
Sequence of UniProt O24408 (whole entry, looked up): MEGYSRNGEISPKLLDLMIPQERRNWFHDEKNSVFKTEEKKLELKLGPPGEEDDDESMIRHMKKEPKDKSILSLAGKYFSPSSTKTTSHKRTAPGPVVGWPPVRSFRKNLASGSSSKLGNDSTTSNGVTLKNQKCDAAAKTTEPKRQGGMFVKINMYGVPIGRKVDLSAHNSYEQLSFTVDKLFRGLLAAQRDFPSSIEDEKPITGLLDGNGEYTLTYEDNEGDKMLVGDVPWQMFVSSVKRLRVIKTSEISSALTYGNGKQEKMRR
Sequence of UniProt Q8L7G0 (whole entry, looked up): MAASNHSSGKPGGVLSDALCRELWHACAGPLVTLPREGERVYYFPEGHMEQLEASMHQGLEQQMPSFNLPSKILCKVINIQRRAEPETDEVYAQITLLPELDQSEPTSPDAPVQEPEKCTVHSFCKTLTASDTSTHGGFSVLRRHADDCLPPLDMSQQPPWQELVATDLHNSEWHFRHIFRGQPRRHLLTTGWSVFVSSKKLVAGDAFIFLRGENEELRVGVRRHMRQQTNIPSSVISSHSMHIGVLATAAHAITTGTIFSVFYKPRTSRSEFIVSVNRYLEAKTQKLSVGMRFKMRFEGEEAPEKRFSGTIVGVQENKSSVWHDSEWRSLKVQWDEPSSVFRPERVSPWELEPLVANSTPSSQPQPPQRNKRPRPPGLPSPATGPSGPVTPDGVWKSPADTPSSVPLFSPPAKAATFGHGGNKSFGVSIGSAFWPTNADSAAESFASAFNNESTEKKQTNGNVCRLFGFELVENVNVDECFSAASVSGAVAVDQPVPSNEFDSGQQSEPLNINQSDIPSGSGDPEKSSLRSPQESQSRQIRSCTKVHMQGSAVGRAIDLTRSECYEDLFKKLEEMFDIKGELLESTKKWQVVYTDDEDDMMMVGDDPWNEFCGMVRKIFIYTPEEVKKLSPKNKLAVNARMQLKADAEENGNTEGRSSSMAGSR

Sample 1
Target: CCNB3, cyclin fold, Cln2 fusion (human)
Technique: yeast growth competition, sequencing
Medium: yeast
Setting: strong parent motif
Baseline: not given
Reading: higher = stronger binding
Parent: PKN2 docking peptide (human); VSAVRKLDFSDTM; partner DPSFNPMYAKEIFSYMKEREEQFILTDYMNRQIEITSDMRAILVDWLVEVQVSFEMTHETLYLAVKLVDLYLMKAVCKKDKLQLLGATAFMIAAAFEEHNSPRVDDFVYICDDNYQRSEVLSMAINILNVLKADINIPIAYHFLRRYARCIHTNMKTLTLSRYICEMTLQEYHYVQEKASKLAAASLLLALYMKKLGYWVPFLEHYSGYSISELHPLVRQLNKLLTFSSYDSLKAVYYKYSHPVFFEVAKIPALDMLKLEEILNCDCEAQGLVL
Change | normalised enrichment score
S10N | 1.22
D11V | 2.08
R5C | 0.409
V4C | 2.37
R5N | -0.169
R5I | 0.349
D11K | 1.94
K6L | 0.633
T12Y | 1.79
T12K | 1.95
D11W | 0.665
V4W | 1.69
F9V | 0.193
S2Y | 1.5
F9L | 0.143
R5V | 0.125
V4K | 2.29
D8R | 0.465
S10K | 0.681
A3F | 0.798
T12Q | 1.38
T12D | 1.14
K6P | -0.085
V4I | 1.15
R5A | 0.45

Sample 2
Target: MAFF, bZIP domain (human)
Technique: DHFR protein complementation
Medium: yeast
Setting: single substitutions, most at no-binding floor
Baseline: wild-type JUN-FOS pair
Reading: higher = stronger binding
Parent: JUN, bZIP domain (human); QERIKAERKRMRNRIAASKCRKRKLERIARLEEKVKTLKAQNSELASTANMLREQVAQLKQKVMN; partner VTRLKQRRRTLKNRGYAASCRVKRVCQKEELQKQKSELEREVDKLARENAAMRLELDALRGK
Change | binding fitness [natural log]
M51T | -1.38
K36L | -1.44
E32I | -1.52
A46D | -1.46
A49P | -1.54
E32R | -1.35
S47R | -1.33
L45Y | -1.53
L31S | -1.26
S43F | -1.4
A29D | -1.45
L38K | -1.55
A40W | -1.49
N42V | -0.925
N42E | -1.43
K36S | -1.48
A40D | -1.56
Q55K | -1.5
S47W | -1.27
Q55A | -1.48
K34Q | -1.33
A29C | -1.49
K39A | -1.54
A49H | -1.48
A46P | -1.57

Sample 3
Target: RNA binding protein fox-1 homolog 2, RRM domain, GST-SBP tag (RBFOX2, Homo sapiens, UniProt O43251-10, residues 100-194)
Technique: RNA Bind-n-Seq
Form: RNA
Medium: in vitro
Concentration: 365 nM
Setting: natural RNA segment, single round, ends assumed
Baseline: no-protein control
Reading: higher = stronger binding
Shared flanks, not repeated: GGGAGUUCUACAGUCCGACGAUC … UGGAAUUCUCGGGUGCCAA
Construct (chain): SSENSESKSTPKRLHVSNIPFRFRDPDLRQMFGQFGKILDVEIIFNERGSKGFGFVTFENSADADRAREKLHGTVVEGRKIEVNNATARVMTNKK
Sequence | RBNS enrichment (R)
GGUUUCUGUCAUAAUGUGCUUUAUCUGAUUGACUCCAAACAUCCCGAAAUGUCACCUGCAGAUUUCUCGUGGGAACCAAUAUGUACAUGUUUGCAAUUAUGCUGUGAGAA | 0.606
GGCUGCUUGGCAAGGCUGUUCAGGACGUGCACUUCCCCAAGUCGGCACUGAGUGGCCCAGCACCGCCUAGCCCUGCCACCCCACUGCCCUCCUGGGCCUUCUGCUGGAUG | 0.558
CAACGCCAAGAUCAUGAUUCGGGGGAAAGGAUCAGUGAAAGAAGGGAAAGUUGGGCGUAAAGAUGGUCAGAUGUUGCCAGGCGAAGAUGAGCCUCUUCAUGCUCUAGUCA | 1.17
GUGGAGCUGCCACAGAGAAGUUUGUAGCCAGGUACUGCAUUCUCUCCCAUCCUGGGGCAGCACUCCCCAGAGCUGUGCCAGCAGGGGGGCUGUGCCAACCUGUUCUUAGA | 0.291
GCACCCUGAUUUUUUUUUUUUUACUAUAACCAGGGUUUCAUUCUGUCUUUUUCCACUGAAGUGUGACAUUUUGUUAGUACAUUUCAGUGUAGUCAUUCAUUUCUAGCUGU | 0.566
UACAUUGCUACAGUUCACUGUAGCAACAGAUUUGGUGGUGAUGGGGGGAUAGAGGUAGAAGCAGAUAGAAGGUAAUUUUAAAGUUAAUUUAUUAUGAAUCAUUUUCCCCU | 0.413
UCUACCUCUGUCUCUUUAACCAUGCUGUCUCUGGACUGAGCAAGAGGGAGGAGGGAGCCUGCUCACCCCACUCCAGGGCCUUCCCCAGCGGCCACCAACUGACCUGGGGC | 0.394
UAGGUCAGCCUAGCGGAACUUUUUUUUUCAUUUAAAUGGAGCUGAAUAAUGGAGAUUUUGUGUCUGCAAAAUUCCUGAGAUCAUUGAAAAAGUAACAAGCUGUUCCUUGU | 0.366
ACUAGACCUUUGCUACCACUGUCUCUGGGUUUUUGUAUCAGUCCCAACUUCUCAGGCUGUCUUGCCCAAGAUGCAGGACCCCUACCUAGCCCACCUCCCAAGGCACCUGU | 0.238
CAUGGGCAAAUGAAAAGGGCUAUUAAAAUUUUUUUACACCUUGGAAAAUUGCAGGCUUGGUGCAGAGCGCUCUGUCAUCUUCACCCUGGGAUGUAGGAUUACCUAGCUAU | 0.508
GUCUCUGUCUUAUUGCAGCUCCAGGCCUGACGUUUUACGGUUUUGUUUUUUACUGGUUUGUGUUUAUAUUUUCGGGGAUACUUAAUAAAUCUAUUGCUGUCAGAUACCCU | 0.758
AUCUUAAGUAUUGUAAGCUGCUGUGUAUGGAUCUCAUUGUAGUCAUACUUGUUUUCCCCAGAUGAGGCACUUGGUGAAUAAAGGAUGCUGGGAAAACUGUGUGUUAUAUU | 1.7

Sample 4
Molecule: B1 (IAA17)
Technique: two-hybrid
Reading: higher = firmer interaction
B1: IAA17 (Arabidopsis thaliana, UniProt P93830); chain MMGSVELNLRETELCLGLPGGDTVAPVTGNKRGFSETVDLKLNLNNEPANKEGSTTHDVVTFDSKEKSACPKDPAKPPAKAQVVGWPPVRSYRKNVMVSCQKSSGGPEAAAFVKVSMDGAPYLRKIDLRMYKSYDELSNALSNMFSSFTMGKHGGEEGMIDFMNERKLMDLVNSWDYVPSYEDKDGDWMLVGDVPWPMFVDTCKRLRLMKGSDAIGLAPRAMEKCKSRA
partner | setting | baseline | positive tests
IAA18 (Arabidopsis thaliana, UniProt O24408) |  | out of 4 tests | 3
IAA31 (Arabidopsis thaliana, UniProt Q8H174) |  | out of 4 tests | 4
IAA28 (Arabidopsis thaliana, UniProt Q9XFM0) |  | out of 4 tests | 3
ARF13 (Arabidopsis thaliana, UniProt Q9FX25) |  | out of 4 tests | 0
IAA30 (Arabidopsis thaliana, UniProt Q9M1R4) | weak activation fusion | out of 4 tests | 0
ARF19 948-1086 (Arabidopsis thaliana, UniProt Q8RYC8) |  | out of 3 tests | 3
ARF1 538-665 (Arabidopsis thaliana, UniProt Q8L7G0) |  | out of 4 tests | 0

Sample 5
Target: Histone acetyltransferase KAT6A, winged helix 2, GST fusion (KAT6A, Homo sapiens, UniProt Q92794, residues 85-181)
Technique: protein binding microarray
Form: double-stranded DNA, one strand shown
Medium: in vitro
Concentration: not given
Setting: 8-mer, flanks averaged, mean of 2 arrays, mostly near background
Baseline: not given
Reading: higher = stronger binding
Residues (chain): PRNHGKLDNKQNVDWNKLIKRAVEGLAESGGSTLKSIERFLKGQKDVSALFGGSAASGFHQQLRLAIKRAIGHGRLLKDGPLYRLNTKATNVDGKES
Sequence | E-score
CTGAATAC | -0.0367
TATTAAAA | 0.151
ATGACTAG | -0.271
TAACGATA | -0.104
GTTAAGAA | 0.101
GACATGTC | -0.249
CAAATATC | 0.129
ACAGTAAG | -0.0716
ATGCAAGC | 0.127
GATCATCC | -0.0486
GTACGCAA | -0.0207
GTCCCTGA | -0.193
ATCGGCAA | 0.0836
AGGAACCG | -0.0368
CGGCTATC | -0.0187
CATTAGAA | 0.181
ACTTCCCC | -0.158
CCATCGTA | -0.153
ACGTGTGC | -0.271
GGGCCTAC | -0.0682
AGGCGTAA | -0.0191
CGTCACCC | -0.0505
CAAGGCTG | -0.0827
CTAGTAGC | -0.00364
GAAGAGAC | 0.0432

For quick reference, copied from above (sample 2):
Change | binding fitness [natural log]
K34Q | -1.33
K39A | -1.54
A46D | -1.46
K36S | -1.48
N42V | -0.925
L38K | -1.55
E32I | -1.52
L31S | -1.26
E32R | -1.35
S47R | -1.33
S47W | -1.27
A29D | -1.45
K36L | -1.44
A40D | -1.56
S43F | -1.4
